Experimental data from different studies.
A part holds a random share of what one study measured.

Sample 1 — technique: competition protein-binding microarray; form: double-stranded DNA, one strand shown; medium: in vitro; concentration: 2 µM; together with: Pho4 competitor, 0.05 µM; direction: higher = stronger binding; endpoint: fluorescence intensity; shared flanks, not repeated: … GTCTTGATTCGCTTGACGCTGCTG
Target: Centromere-binding protein 1, full length, His-tagged (CBF1, Saccharomyces cerevisiae, UniProt P17106, residues 1-351)
Chain of UniProt P17106 (whole entry, looked up): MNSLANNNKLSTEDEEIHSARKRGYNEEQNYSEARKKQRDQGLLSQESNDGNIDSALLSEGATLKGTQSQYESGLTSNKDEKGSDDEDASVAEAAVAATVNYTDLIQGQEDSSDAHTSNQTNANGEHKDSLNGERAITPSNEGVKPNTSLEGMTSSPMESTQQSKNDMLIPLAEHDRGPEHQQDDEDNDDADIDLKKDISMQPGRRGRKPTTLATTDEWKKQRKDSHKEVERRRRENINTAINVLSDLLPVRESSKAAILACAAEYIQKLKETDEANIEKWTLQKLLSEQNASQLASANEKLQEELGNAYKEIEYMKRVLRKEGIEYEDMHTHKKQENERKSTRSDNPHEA
Notes: whole 60-bp probe, lowest competitor level
TAACGCGATTTACGCTCCGTGCAAAACGATTCTTTG: 75.2 a.u.
GTCTTGTCTCATTTTCACGTGAGTTTCCCCACTTCA: 738 a.u.
CTGACCTGACATTTGTTAAAAAGGACGTAAGATCGC: 74.8 a.u.
CGACGCACCGAACGATACGGGGCTTGGCTGTTTTAT: 81 a.u.
ACATCTCCATTGATTTGTTCTAATAGCATTTCATCC: 76.7 a.u.
CGGGGTTAAGTTTGGCCGGTGGGTGGCTTGCAGCAG: 80.7 a.u.

Sample 2 — technique: protein binding microarray; form: double-stranded DNA, one strand shown; medium: in vitro; concentration: not given; reference: not given; direction: higher = stronger binding; endpoint: E-score
Target: Histone acetyltransferase KAT6A, winged helix 1, GST fusion (KAT6A, Homo sapiens, UniProt Q92794, residues 1-85)
Notes: 8-mer, flanks averaged, mean of 2 arrays, mostly near background
Residues (chain): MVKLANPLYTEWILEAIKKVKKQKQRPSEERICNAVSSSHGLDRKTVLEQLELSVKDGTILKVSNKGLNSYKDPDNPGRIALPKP
AAGTATCG: -0.00811
CCACCGCC: 0.217
AGTGCTCA: -0.214
GTACGCTA: 0.252
CACTCGAA: -0.364

Sample 3 — technique: RNA Bind-n-Seq; form: RNA; medium: in vitro; concentration: 200 nM; notes: whole 134-nt RNA, ends assumed; together with: 150 mM LiCl; reference: input library; direction: higher = stronger binding; endpoint: log2 enrichment; all molecules: 7-deaza-guanosine replaces G
Target: Ras GTPase-activating protein-binding protein 1, full length (G3BP1, Homo sapiens, UniProt Q13283)
Chain of UniProt Q13283 (whole entry, looked up): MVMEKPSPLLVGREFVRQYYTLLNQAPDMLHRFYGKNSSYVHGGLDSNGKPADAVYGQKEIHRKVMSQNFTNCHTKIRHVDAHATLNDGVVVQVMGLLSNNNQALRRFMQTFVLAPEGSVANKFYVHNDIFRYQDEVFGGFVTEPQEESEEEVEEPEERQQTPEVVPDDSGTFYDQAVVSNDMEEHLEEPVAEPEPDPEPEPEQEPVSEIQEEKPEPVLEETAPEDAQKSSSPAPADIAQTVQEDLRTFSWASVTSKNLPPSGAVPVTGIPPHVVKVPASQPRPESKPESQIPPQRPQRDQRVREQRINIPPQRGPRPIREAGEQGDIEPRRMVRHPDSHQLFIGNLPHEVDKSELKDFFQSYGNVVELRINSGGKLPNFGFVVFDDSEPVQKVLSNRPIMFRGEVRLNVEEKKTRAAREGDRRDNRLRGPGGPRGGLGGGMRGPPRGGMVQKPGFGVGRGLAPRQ
GGGAGUUCUACAGUCCGACGAUCUGUCGGGGCCAAAGUGGUAACGAACGCCCGCAGCCCGGGGGCUCGAUGCUAUGGAUUCGUCACCAUGUCGACAUCUGACGAGGCGACCAAUGGAAUUCUCGGGUGUCAAGG: -2.31
GGGAGUUCUACAGUCCGACGAUCUCAAGUCCUGUGCUACACAUCGUAUGUACCGAAUCGGGCCGGGGCCGGGGCCGGGAAAGUAUUAUGUUACGCCGUUCGGAUCUGCACUUCUGGAAUUCUCGGGUGUCAAGG: 0.068
GGGAGUUCUACAGUCCGACGAUCUGGGAGGUGGACUUUGUUUAUUUUUUUAGCUCAUUUCCAGGGGUGGGAAUUUUUUUUUAAUAUGUGUCAUGAAUAAAGUUGUUUUUGAAAUGGAAUUCUCGGGUGUCAAGG: -0.461

Other studies, line by line
PhoQ, residues 284 288 289 292 302 303 AGGCYF — fold induction (PhoP, residues 12 14 15 18 19 TPWLV (Escherichia coli, UniProt P23836); Sort-seq, refers to: YFP reporter; E. coli; PhoQ-PhoP variant library, together with: 10 µM Mg2+; reference: high Mg2+ state, higher = stronger signaling): 2.99

Repeated from above (sample 2):
AAGTATCG: -0.00811
CCACCGCC: 0.217
